Results pooled from the literature.
rpl-10a: rpl-10a 1-216 (Caenorhabditis elegans, UniProt Q9N4I4)
Chain of UniProt Q9N4I4 (whole entry, looked up): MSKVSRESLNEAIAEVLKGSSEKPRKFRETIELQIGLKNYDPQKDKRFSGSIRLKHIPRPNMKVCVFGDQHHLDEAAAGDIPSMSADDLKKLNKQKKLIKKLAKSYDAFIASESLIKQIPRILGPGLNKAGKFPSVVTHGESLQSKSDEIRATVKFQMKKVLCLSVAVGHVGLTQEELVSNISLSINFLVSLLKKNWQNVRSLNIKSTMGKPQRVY
fur full length assumed: fur full length assumed (Acidithiobacillus ferrooxidans, UniProt B7J425)
leuO S120D: leuO fragment S120D (Escherichia coli)
B1: UGT1A9 (Homo sapiens, UniProt O60656); chain GKLLVVPMDGSHWFTMRSVVEKLILRGHEVVVVMPEVSWQLGRSLNCTVKTYSTSYTLEDLDREFKAFAHAQWKAQVRSIYSLLMGSYNDIFDLFFSNCRSLFKDKKLVEYLKESSFDAVFLDPFDNCGLIVAKYFSLPSVVFARGILCHYLEEGAQCPAPLSYVPRILLGFSDAMTFKERVRNHIMHLEEHLLCHRFFKNALEIASEILQTPVTEYDLYSHTSIWLLRTDFVLDYPKPVMPNMIFIGGINCHQGKPLPMEFEAYINASGEHGIVVFSLGSMVSEIPEKKAMAIADALGKIPQTVLWRYTGTRPSNLANNTILVKWLPQNDLLGHPMTRAFITHAGSHGVYESICNGVPMVMMPLFGDQMDNAKRMETKGAGVTLNVLEMTSEDLENALKAVINDKSYKENIMRLSSLHKDRPVEPLDLAVFWVEFVMRHKGAPHLRPAAHDLTWYQYHSLDVIGFLLAVVLTVAFITFKCCAYGYRKCLGKKGRVKKAHKSKTH
Chain of UniProt F4JVI3 (whole entry, looked up): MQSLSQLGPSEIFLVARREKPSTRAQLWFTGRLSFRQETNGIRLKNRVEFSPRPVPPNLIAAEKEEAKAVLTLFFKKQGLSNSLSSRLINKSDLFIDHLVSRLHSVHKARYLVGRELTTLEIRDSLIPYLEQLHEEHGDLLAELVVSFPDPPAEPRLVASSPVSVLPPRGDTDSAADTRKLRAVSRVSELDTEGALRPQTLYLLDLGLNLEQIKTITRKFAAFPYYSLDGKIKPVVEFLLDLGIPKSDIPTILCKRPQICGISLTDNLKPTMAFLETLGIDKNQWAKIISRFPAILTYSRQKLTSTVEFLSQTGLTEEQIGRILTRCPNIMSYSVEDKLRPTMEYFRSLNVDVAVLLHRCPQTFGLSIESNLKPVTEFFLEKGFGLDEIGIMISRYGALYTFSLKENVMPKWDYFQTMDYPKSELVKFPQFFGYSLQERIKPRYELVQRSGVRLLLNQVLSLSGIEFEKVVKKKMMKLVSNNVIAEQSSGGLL
Chain of UniProt P75989 (whole entry, looked up): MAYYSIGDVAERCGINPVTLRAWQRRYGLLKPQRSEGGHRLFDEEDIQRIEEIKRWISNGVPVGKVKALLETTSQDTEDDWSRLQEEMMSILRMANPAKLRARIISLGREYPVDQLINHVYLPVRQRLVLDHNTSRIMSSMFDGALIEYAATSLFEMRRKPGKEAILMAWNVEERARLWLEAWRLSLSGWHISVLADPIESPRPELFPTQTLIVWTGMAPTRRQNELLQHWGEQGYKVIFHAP
Chain of UniProt P35222 (whole entry, looked up): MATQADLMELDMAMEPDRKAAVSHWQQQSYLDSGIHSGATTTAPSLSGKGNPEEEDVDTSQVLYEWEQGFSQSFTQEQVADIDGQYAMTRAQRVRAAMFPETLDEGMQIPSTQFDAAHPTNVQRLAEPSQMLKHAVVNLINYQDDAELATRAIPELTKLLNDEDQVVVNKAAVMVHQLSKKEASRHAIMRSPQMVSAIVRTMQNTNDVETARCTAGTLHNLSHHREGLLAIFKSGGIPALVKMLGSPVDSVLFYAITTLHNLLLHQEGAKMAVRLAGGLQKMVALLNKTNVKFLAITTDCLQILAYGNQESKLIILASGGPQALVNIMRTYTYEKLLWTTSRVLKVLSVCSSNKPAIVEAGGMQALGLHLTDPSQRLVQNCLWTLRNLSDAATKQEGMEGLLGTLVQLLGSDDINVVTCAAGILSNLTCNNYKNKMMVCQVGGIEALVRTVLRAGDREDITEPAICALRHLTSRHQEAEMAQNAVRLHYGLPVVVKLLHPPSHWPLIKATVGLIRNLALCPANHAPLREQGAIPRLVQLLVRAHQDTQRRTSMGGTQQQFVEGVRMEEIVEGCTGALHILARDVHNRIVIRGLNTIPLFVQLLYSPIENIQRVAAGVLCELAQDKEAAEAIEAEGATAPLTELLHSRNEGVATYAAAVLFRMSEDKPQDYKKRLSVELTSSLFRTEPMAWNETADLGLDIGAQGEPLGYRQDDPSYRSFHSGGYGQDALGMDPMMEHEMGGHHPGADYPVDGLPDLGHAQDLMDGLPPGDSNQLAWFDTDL

| Molecule | target or system | assay | system | setting | quantity | value |
| --- | --- | --- | --- | --- | --- | --- |
| GCAGACCTTGTGGCAACAATTTCTACAAAACACTTGATACTGTATGAGCATACAGTATAATTGCTTCAACAGAACATATTGACTATCC (dsDNA) | lexA 2-202 (Escherichia coli, UniProt P0A7C2) | SPR | double-stranded DNA, one strand shown |  | binding | binds |
| GGGAGAUGAAAUAAUGAUAUGAGCUGGUAUAAUGUAACCAAUCGUGUCAUUUGGAUUUAUUUCUAUUGUUCUAUUUUCCAGACUGAAGCACAUUCCACGCCCAAACAUGAAGGUGUGCGUCUUCGGAGACCAGCACCAUCUUGACGAGGCUGCC (ssRNA) | rpl-10a | UV crosslinking |  |  | binding | binds weakly |
| DNA 1 GGACGGCATTGGATCGAGGTTGAGTTGGTTGGACGGCTGCGAGGA / DNA 2 TCCTCGCAGCCGTCCAACCAACTCA (dsDNA; 5' overhang 20 nt) | POLG/POLG2 26-1239; 26-485 (Homo sapiens) | SAXS | double-stranded DNA |  | binding | binds |
| TCTTTCCTTTCTGTGGATGCCGGAACAGGGAGCGTGGCAGACGAGACAGCTATGCCCGGAATCGCTTGATAAGTAACTTATCATATATGTAATTATTCTTGACAGATCCATTTCCTGCGCTACACTGAGATTGCAAATAAACATTACATTTCGTGTTTCATTCGGGGGTCTTTCATGTCCGGGACTTTGGCAGAAACGGAATACCAGGTCGCCTTGA (dsDNA) | fur full length assumed | EMSA | double-stranded DNA, one strand shown | supershift, together with: Mn2+ 0.1 mM | binding | binds |
| CGAGTAAGCGCGGTATTTCGGCGCATGCTTTTTCTCCTTTGAATGGTGAACGCTCAGAACGAACGCCCAGTGATGCTTGGCGCTTCCTTTCCTTATGCGCCACGTGGTACAGCTGTGTATCACGCAATTGTCACCTTAACACTTTATACCGCGTTGGTCAACCGGTGTATCATCGCCTCGTACGGCCCAGTACAGCAACACCAGCATTACAGCAATGTCGTTCAAC (dsDNA) | galR full length assumed (Bifidobacterium breve, UniProt F9Y1U7) | EMSA | double-stranded DNA, one strand shown |  | binding | binds |
| CCTACTTAAGTAGGGAAGGTGCACAATGTACATCTTCTTTTAATTTCCCGGTATGAGATTTTATATTCACAGTATGAATATTTTATGTAATAAAATTCATGGTAATTATTATAACTAAAAGTTTCTTTAATAATAAAACGAATAACTTGCAGATTTGAAATGCAT (dsDNA (Escherichia coli); blunt) | leuO S120D | DNase I footprinting | double-stranded DNA, one strand shown |  | binding | binds |
| GTATAGATTGTCAGTTAAATGATGCAATATGTTTTATCATAACACATTGTTTTATATGCATTAGCACTAATTGCAAAAAATTAATTTATCATTCTGTACACATATTTCGTACAAGTTTGCTATTGTTACTTCACTTAACATTGATTAACATTTTTAACAGAGGCGTAGCATGCATC (dsDNA) | bluR 1-243 (Escherichia coli, UniProt P75989) | DNase I footprinting | double-stranded DNA, one strand shown | 0-3.94 µM | binding | binds |
| DNA 1 CGAGGTATGGCACTGGCCGTCGTTTTCG / DNA 2 CGAAAACGACGGCCAGTGCCATAT (dsDNA; 4-nt 5' overhang, G-T mismatch) | POLG/POLG2 26-1239; 26-485 del43-52 (Homo sapiens) | cryo-EM | double-stranded DNA | together with: dCTP | binding | binds |
| GGGAGAGAAGGACAAGCGUUUCAGCGGAUCCAUCAGGUAGCUACGACCUGUGAAAACAGGGAGUUGGGACUUUCAAAGCCUAACGGACCCCCACCCAGGGUCUUAAAUUUUUGGGGAGGCAAUUAUUGCCGCUUUGAAAUAAUGAUACGAGCUGGUAUAAUGUAACCAAUCGUGUCAUUUGGAUUUAUUUCUAUUGUUCUAUUUUCCAGACUGAAGCACAUUCCACGCCCAAACAUGAAGG (ssRNA (Caenorhabditis elegans); 39 nt, deletion) | rpl-10a | UV crosslinking |  |  | binding | binds |
| GTAGACTCTAAAAATACCCTTGGTACTTTATTGACGATCTCACAAAGATGCAATCTCAGTGAATTTTAATTTACTTATTCATCTTTTACAGAATCGATTC (dsDNA) | MTERF5 44-493 (Arabidopsis thaliana, UniProt F4JVI3) | EMSA | double-stranded DNA, one strand shown |  | binding | binds |
| B1 (UGT1A9) | COc1cc(/C=C/C(O)=C/C(=O)/C=C/c2ccc(O)cc2)ccc1O | steady-state kinetics |  | pH 7.4, 37 °C | Vmax/Km | 14 µL/min/mg |
| GATCGATCGACACACACACACACACAGATCGATCGA (dsDNA; N6-methyl-dA at 12,14,16,18,20,22,24,26; blunt) | Pc fragment (Drosophila melanogaster) | pull-down | double-stranded DNA, one strand shown |  | binding | binds |
| GGGAAGUCUAAUGAUCAUAUUUAUUUAUUUAUAUGAACCAUGUCUAUUAAUUUAAUUAUUUAAUAAUAUUUAUAUUAAACUCCUUAUGUUACUUAACAUCUUCUGUAACAGAAGUCAGUACUCCUGUUGCGGAGAAAGGAGUCAUACUUGUGAUCUAGACU (ssRNA) | CTNNB1 full length assumed (Homo sapiens, UniProt P35222) | EMSA |  |  | binding | binds |
| CCAAGGCAGCAGTAGAAGCAAGACCATAAAGGCTATCCGGCGAACGAACAGGCGAAAATTGCGCACAATACCTCAATTTCGAAACGATAATTTTATTGTCATAACGCAACGATCGTCCAATGTCAATCCTGCTGCGACTGATCGCCGCGCATCCCGCCCTTTCTGGCGCGCCCCTTATTCACGGCTTTTTCTACCCATTGGGTAGCCTG (dsDNA) | fur full length assumed | EMSA | double-stranded DNA, one strand shown | supershift, together with: Mn2+ 0.1 mM | binding | binds |
| GGGAGAGUAGCUACGACCUGUGAAAACAGGGAGUUGGGACUUUCAAAGCCUAACGGACCCCCACCCAGGGUCUUAAAUUUUUGGGGAGGCAAUUAUUGCCGCUUUGAAAUAAUGAUAUGAGCUGGUAUAAUGUAACCAAUCGUGUCAUUUGGAUUUAUUUCUAUUGUUCUAUUUUCCAG (ssRNA (Caenorhabditis elegans); 39 nt, deletion) | rpl-10a | UV crosslinking |  |  | binding | binds |
| TTGAAATGCATGCATTATTGTCTTTAAACAATTCAACACATCTTAATATATGTATAGGTTAATTGTATTAAACCAATGAATATATTTTTGCAGTGAATGTGATTATTGAATTAATTACGCCGTATTTTTTCTTTGTTTTTACCGATAACGGAAGTGTGCCGACGTA (dsDNA (Escherichia coli); blunt) | leuO S120D | DNase I footprinting | double-stranded DNA, one strand shown |  | binding | binds |
| GTGTTTCACGGGCTCTACTCCTGTGGTTTGCGAAATATTCAATGGAATATACTGGTAACTATTTTTGGGTGTCAATAGATTTGTTAAGCTGGTCATATCCAGATATGACATGAATTTGGCATCTTTTTTGCTACATCTTCCACGCGGCCCTATTGCCCACTTATTTGTTCGTTTTATGACAATAATGTGTACTTATTGACATCTAGGGAGAGGCTTTTTGAAACTGCG (dsDNA) | fur full length assumed | EMSA | double-stranded DNA, one strand shown | supershift, together with: Mn2+ 0.1 mM | binding | binds |

Excerpt of the above:
| Molecule | target or system | assay | system | setting | quantity | value |
| --- | --- | --- | --- | --- | --- | --- |
| B1 (UGT1A9) | COc1cc(/C=C/C(O)=C/C(=O)/C=C/c2ccc(O)cc2)ccc1O | steady-state kinetics |  | pH 7.4, 37 °C | Vmax/Km | 14 µL/min/mg |
| GGGAGAGAAGGACAAGCGUUUCAGCGGAUCCAUCAGGUAGCUACGACCUGUGAAAACAGGGAGUUGGGACUUUCAAAGCCUAACGGACCCCCACCCAGGGUCUUAAAUUUUUGGGGAGGCAAUUAUUGCCGCUUUGAAAUAAUGAUACGAGCUGGUAUAAUGUAACCAAUCGUGUCAUUUGGAUUUAUUUCUAUUGUUCUAUUUUCCAGACUGAAGCACAUUCCACGCCCAAACAUGAAGG (ssRNA (Caenorhabditis elegans); 39 nt, deletion) | rpl-10a | UV crosslinking |  |  | binding | binds |
